Measurements of several laboratories.
Compare with care: the assays were run in different laboratories.
Organism: Staphylococcus aureus

Compound | assay | system | setting | MIC
CC(C)C[C@H](NC(=O)CNC(=O)CNC(=O)CNC(=O)[C@H](Cc1ccc(O)cc1)NC(=O)[C@H](CC(C)C)NC(=O)[C@@H](NC(=O)CNC(=O)[C@H](Cc1ccc(O)cc1)NC(=O)[C@H](CCCCN)NC(=O)[C@H](CC(N)=O)NC(=O)[C@@H](NC(=O)[C@H](CCCCN)NC(=O)[C@H](Cc1c[nH]c2ccccc12)NC(=O)CN)[C@@H](C)O)[C@@H](C)O)C(=O)N[C@@H](CCCCN)C(=O)N[C@@H](CCCCN)C(=O)N[C@@H](CC(C)C)C(=O)N[C@@H](CC(C)C)C(=O)N[C@@H](CC(C)C)C(=O)N[C@@H](CC(C)C)C(=O)N[C@@H](CC(C)C)C(=O)N[C@@H](CCCCN)C(=O)N[C@@H](CCCCN)C(=O)N[C@@H](CC(C)C)C(=O)NCC(=O)O |  | ATCC 25923 | added: 4 µM FeCl3 | 16 µg/mL
Cc1ccc2[nH]c3c(c2c1)CCCC3NCCc1ccc(O)cc1 (stereo not drawn) | broth microdilution | SA113 ΔtarO |  | > 16 µg/mL
CN[C@H](CC(C)C)C(=O)N[C@H]1C(=O)N[C@@H](CC(N)=O)C(=O)N[C@H]2C(=O)N[C@H]3C(=O)N[C@H](C(=O)N[C@H](C(=O)O)c4cc(O)cc(O)c4-c4cc3ccc4O)[C@H](O)c3ccc(c(Cl)c3)Oc3cc2cc(c3O[C@@H]2O[C@H](CO)[C@@H](O)[C@H](O)[C@H]2O[C@H]2C[C@](C)(N)[C@H](O)[C@H](C)O2)Oc2ccc(cc2Cl)[C@H]1O |  | CRB, PBP4 overexpressor |  | 0.5 µg/mL
CC[C@H](C)[C@H](NC(=O)[C@H](CC(C)C)NC(=O)[C@H](CCCCN)NC(=O)[C@@H](NC(=O)[C@H](C)NC(=O)[C@H](CCC(=O)O)NC(=O)[C@H](Cc1c[nH]cn1)NC(=O)[C@@H](NC(=O)[C@H](CCCCN)NC(=O)[C@H](CCC(N)=O)NC(=O)[C@H](Cc1ccccc1)NC(=O)[C@@H](N)C(C)C)[C@@H](C)CC)[C@@H](C)CC)C(N)=O | broth microdilution | MW2 resistant | 18 h, 37 °C | > 128 µM
CC(C)C[C@@H](NC(=O)[C@H](C)NC(=O)CNC(=O)[C@@H](NC=O)C(C)C)C(=O)N[C@@H](C)C(=O)N[C@@H](C(=O)N[C@H](C(=O)N[C@@H](C(=O)N[C@@H](Cc1c[nH]c2ccccc12)C(=O)N[C@H](CC(C)C)C(=O)N[C@@H](Cc1ccc2[nH]ccc2c1)C(=O)N[C@H](CC(C)C)C(=O)N[C@@H](Cc1c[nH]c2ccccc12)C(=O)N[C@H](CC(C)C)C(=O)N[C@@H](Cc1c[nH]c2ccccc12)C(=O)NCCO)C(C)C)C(C)C)C(C)C | broth microdilution | MSSA1, methicillin-susceptible |  | 17 µM
CC[C@H](C)[C@H](NC(=O)[C@H](CC(C)C)NC(=O)[C@H](CCCNC(=N)N)NC(=O)[C@@H](N)CCCNC(=N)N)C(=O)N[C@@H](CCCNC(=N)N)C(=O)N[C@@H](CCCCN)C(=O)N[C@@H](CC(C)C)C(=O)N[C@@H](CCCCN)C(=O)NCC(=O)N1CCC[C@H]1C(=O)N[C@@H](CCCCN)C(=O)N[C@H](C(=O)N[C@@H](Cc1ccc(O)cc1)C(=O)N[C@@H](CC(C)C)C(=O)N[C@@H](Cc1ccc(O)cc1)C(=O)N[C@@H](Cc1ccccc1)C(=O)N[C@@H](CCCCN)C(=O)N[C@@H](CC(C)C)C(=O)N[C@@H](CCC(N)=O)C(=O)N[C@@H](CC(C)C)C(=O)N[C@@H](CC(C)C)C(=O)N[C@@H](CCCCN)C(=O)N[C@@H](CCCCN)C(N)=O)[C@@H](C)CC | broth microdilution | KCTC 1621, Mueller-Hinton broth | 24 h, 37 °C | 16 µM
CC[C@H](C)[C@H](NC(=O)[C@H](CCCNC(=N)N)NC(=O)[C@H](CCCNC(=N)N)NC(=O)[C@H](CCCNC(=N)N)NC(=O)[C@H](CCCNC(=N)N)NC(=O)[C@H](CC(C)C)NC(=O)[C@H](CCCNC(=N)N)NC(=O)[C@H](CO)NC(=O)[C@@H](N)CO)C(=O)N[C@H](C(=O)N[C@@H](CC(C)C)C(=O)N[C@@H](CCCNC(=N)N)C(=O)N[C@@H](CCCNC(=N)N)C(=O)N[C@@H](CCCNC(=N)N)C(=O)N[C@@H](CCCNC(=N)N)C(=O)N[C@@H](Cc1ccccc1)C(=O)N[C@@H](CO)C(=O)N[C@@H](C)C(=O)N[C@@H](Cc1ccc(O)cc1)C(N)=O)C(C)C | broth microdilution | ATCC 29213 | highest value reported | 32 µM
CC[C@H](C)[C@H](NC(=O)[C@H](CC(C)C)NC(=O)[C@H](CCCNC(=N)N)NC(=O)[C@@H](N)CCCNC(=N)N)C(=O)N[C@@H](CCCNC(=N)N)C(=O)N[C@@H](CCCCN)C(=O)N[C@@H](CC(C)C)C(=O)N[C@@H](CCCCN)C(=O)NCC(=O)N[C@@H](CC(C)C)C(=O)N[C@@H](CCCCN)C(=O)N[C@@H](CCCCN)C(=O)N[C@@H](Cc1ccc(O)cc1)C(=O)N[C@@H](CC(C)C)C(=O)N[C@@H](Cc1ccc(O)cc1)C(=O)N[C@@H](Cc1ccccc1)C(=O)N[C@@H](CCCCN)C(=O)N[C@@H](CC(C)C)C(=O)N[C@@H](CCC(N)=O)C(=O)N[C@@H](CC(C)C)C(=O)N[C@@H](CC(C)C)C(=O)N[C@@H](CCCCN)C(=O)N[C@@H](CCCCN)C(N)=O | broth microdilution | KCTC 1621, Mueller-Hinton broth | 24 h, 37 °C | 8 µM
CC[C@H](C)[C@H](NC(=O)CN)C(=O)N[C@@H](CC(C)C)C(=O)N[C@@H](CC(=O)O)C(=O)N[C@@H](C)C(=O)N[C@H](C(=O)N[C@@H](CCCCN)C(=O)N[C@@H](C)C(=O)N[C@H](C(=O)N[C@@H](C)C(=O)N[C@@H](CCCCN)C(=O)N[C@@H](C)C(=O)N[C@H](C(=O)N[C@@H](CCCCN)C(=O)N[C@@H](C)C(=O)N[C@@H](CCCCN)C(=O)N[C@@H](C)C(=O)NCC(N)=O)[C@@H](C)CC)[C@@H](C)CC)[C@@H](C)CC |  | ATCC 29213, Mueller-Hinton broth | 12 h, 37 °C | 4 µg/mL
CC[C@H](C)[C@H](N)C(=O)N[C@@H](CC(C)C)C(=O)NCC(=O)N[C@@H](CCC(=O)O)C(=O)N[C@H](C(=O)N[C@@H](Cc1c[nH]c2ccccc12)C(=O)N[C@@H](CCCCN)C(=O)NCC(=O)N[C@H](C(=O)N[C@@H](CCCCN)C(=O)N[C@@H](CC(=O)O)C(=O)N[C@H](C(=O)N[C@@H](CC(C)C)C(N)=O)[C@@H](C)CC)[C@@H](C)CC)[C@@H](C)CC | broth microdilution | ATCC 25923, Mueller-Hinton broth | 16 h, 37 °C | > 100 µM
N=C(N)NCCC[C@H](NC(=O)[C@@H](N)CCCNC(=N)N)C(=O)N[C@@H](Cc1c[nH]c2ccccc12)C(=O)N[C@@H](Cc1c[nH]c2ccccc12)C(=O)N[C@@H](CCC(N)=O)C(=O)N[C@@H](Cc1ccccc1)C(=O)N[C@@H](CCC(N)=O)C(=O)N[C@@H](Cc1ccccc1)C(=O)N[C@@H](CCCCN)C(N)=O | broth microdilution, optical density | ATCC 25923 |  | 77 µM
CC[C@H](C)[C@H](NC(=O)[C@H](Cc1ccc(O)cc1)NC(=O)[C@@H](NC(=O)[C@H](Cc1c[nH]c2ccccc12)NC(=O)[C@@H]1CCCN1C(=O)[C@@H](NC(=O)[C@H](C)N)[C@@H](C)CC)[C@@H](C)CC)C(=O)N[C@@H](Cc1ccc(O)cc1)C(=O)N[C@@H](CCCNC(=N)N)C(=O)N[C@@H](CC(C)C)C(=O)N[C@@H](CC(C)C)C(=O)N[C@@H](CCCNC(=N)N)C(=O)N[C@@H](CCCCN)C(=O)NCC(=O)O | broth microdilution | ATCC 19609 | 18 h, 37 °C | 1.88 µM

Repeated from above:
Compound | assay | system | setting | MIC
Cc1ccc2[nH]c3c(c2c1)CCCC3NCCc1ccc(O)cc1 (stereo not drawn) | broth microdilution | SA113 ΔtarO |  | > 16 µg/mL
CN[C@H](CC(C)C)C(=O)N[C@H]1C(=O)N[C@@H](CC(N)=O)C(=O)N[C@H]2C(=O)N[C@H]3C(=O)N[C@H](C(=O)N[C@H](C(=O)O)c4cc(O)cc(O)c4-c4cc3ccc4O)[C@H](O)c3ccc(c(Cl)c3)Oc3cc2cc(c3O[C@@H]2O[C@H](CO)[C@@H](O)[C@H](O)[C@H]2O[C@H]2C[C@](C)(N)[C@H](O)[C@H](C)O2)Oc2ccc(cc2Cl)[C@H]1O |  | CRB, PBP4 overexpressor |  | 0.5 µg/mL
